# Published values collected from several papers.
# Lines come from different studies, so protocols differ. ± marks the error that the study gave.
# FFAR2: Free fatty acid receptor 2 (FFAR2, Homo sapiens, UniProt O15552)
# UniProt O15552, sequence (whole entry, looked up): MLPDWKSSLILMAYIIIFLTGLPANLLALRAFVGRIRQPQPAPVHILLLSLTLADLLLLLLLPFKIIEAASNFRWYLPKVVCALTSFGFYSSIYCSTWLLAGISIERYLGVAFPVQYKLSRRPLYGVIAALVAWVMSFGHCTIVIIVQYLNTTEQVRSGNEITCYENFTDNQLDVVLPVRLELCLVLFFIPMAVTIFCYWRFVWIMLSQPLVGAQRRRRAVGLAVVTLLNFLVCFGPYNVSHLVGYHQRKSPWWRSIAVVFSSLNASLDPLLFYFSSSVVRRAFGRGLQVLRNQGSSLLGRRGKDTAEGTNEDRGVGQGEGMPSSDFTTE
# Sctr: Sctr (Rattus norvegicus, UniProt P23811)
# UniProt P23811, sequence (whole entry, looked up): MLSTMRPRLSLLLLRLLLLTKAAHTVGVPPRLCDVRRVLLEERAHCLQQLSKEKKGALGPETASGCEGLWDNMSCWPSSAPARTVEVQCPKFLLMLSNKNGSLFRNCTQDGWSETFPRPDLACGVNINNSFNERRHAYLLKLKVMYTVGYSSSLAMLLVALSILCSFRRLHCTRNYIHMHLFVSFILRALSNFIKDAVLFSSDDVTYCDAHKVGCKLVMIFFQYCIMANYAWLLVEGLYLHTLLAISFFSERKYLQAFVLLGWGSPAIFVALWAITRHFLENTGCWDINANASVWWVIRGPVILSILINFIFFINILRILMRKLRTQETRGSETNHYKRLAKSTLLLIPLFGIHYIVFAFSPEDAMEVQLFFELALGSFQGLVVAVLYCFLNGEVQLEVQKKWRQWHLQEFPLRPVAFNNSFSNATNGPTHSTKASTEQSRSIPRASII
# GRPR: Gastrin-releasing peptide receptor (GRPR, Homo sapiens, UniProt P30550)
# UniProt P30550, sequence (whole entry, looked up): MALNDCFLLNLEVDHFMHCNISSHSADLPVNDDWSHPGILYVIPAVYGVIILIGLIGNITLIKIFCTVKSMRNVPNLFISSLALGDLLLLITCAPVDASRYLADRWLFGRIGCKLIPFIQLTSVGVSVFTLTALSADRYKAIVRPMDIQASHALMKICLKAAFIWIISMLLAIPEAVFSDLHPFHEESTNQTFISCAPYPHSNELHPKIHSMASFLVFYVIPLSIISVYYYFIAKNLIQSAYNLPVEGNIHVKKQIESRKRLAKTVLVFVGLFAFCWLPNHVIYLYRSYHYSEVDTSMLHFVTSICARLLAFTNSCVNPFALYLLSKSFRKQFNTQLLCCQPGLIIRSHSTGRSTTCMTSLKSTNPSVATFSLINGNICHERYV
# UniProt Q9WUP0, sequence (whole entry, unmodified, looked up): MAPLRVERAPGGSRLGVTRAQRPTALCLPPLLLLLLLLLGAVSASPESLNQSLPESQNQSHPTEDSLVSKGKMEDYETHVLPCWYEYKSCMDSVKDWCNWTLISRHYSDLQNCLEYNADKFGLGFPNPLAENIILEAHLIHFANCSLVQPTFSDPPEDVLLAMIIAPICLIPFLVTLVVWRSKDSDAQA
# UniProt P32241, sequence (whole entry, looked up): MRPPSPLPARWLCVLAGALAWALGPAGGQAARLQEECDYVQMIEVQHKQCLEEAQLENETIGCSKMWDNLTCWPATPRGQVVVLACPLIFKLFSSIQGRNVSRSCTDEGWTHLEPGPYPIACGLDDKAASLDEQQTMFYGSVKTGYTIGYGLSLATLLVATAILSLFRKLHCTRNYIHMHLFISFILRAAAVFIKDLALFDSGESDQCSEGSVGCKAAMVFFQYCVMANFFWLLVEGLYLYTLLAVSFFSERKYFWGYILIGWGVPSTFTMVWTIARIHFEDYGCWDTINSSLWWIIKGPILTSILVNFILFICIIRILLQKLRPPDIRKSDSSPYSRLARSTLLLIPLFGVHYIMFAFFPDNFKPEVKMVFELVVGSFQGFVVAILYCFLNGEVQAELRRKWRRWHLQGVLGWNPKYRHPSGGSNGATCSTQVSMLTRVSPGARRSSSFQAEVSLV
# UniProt P23576, sequence (whole entry, looked up): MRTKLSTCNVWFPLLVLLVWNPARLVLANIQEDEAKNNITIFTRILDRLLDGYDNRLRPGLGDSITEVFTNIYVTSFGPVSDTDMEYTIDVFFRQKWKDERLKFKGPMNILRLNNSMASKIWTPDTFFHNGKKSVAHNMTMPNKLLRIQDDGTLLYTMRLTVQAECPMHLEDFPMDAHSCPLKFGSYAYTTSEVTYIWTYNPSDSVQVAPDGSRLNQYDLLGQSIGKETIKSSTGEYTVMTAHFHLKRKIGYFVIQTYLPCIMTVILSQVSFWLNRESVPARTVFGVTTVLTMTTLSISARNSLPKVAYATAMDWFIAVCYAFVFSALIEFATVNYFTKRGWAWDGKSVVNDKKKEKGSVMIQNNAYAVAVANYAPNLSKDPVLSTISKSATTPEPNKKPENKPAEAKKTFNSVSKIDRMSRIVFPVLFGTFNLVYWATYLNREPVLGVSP
# UniProt Q60755, sequence (whole entry, unmodified, looked up): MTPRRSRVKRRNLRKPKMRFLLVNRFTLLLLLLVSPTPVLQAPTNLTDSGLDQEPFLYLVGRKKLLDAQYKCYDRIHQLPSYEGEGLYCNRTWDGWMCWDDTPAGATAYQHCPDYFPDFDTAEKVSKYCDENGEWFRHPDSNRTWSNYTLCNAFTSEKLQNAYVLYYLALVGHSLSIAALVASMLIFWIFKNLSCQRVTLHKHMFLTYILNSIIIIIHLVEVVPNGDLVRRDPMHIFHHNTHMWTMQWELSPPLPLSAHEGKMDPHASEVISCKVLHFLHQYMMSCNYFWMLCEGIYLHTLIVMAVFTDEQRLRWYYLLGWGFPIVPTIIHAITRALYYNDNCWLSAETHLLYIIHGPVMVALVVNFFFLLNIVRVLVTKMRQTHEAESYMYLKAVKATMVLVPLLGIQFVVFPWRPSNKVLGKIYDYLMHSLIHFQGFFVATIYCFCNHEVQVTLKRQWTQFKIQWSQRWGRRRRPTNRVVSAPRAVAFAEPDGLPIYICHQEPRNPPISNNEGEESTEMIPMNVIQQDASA
# UniProt P63138, sequence (whole entry, looked up): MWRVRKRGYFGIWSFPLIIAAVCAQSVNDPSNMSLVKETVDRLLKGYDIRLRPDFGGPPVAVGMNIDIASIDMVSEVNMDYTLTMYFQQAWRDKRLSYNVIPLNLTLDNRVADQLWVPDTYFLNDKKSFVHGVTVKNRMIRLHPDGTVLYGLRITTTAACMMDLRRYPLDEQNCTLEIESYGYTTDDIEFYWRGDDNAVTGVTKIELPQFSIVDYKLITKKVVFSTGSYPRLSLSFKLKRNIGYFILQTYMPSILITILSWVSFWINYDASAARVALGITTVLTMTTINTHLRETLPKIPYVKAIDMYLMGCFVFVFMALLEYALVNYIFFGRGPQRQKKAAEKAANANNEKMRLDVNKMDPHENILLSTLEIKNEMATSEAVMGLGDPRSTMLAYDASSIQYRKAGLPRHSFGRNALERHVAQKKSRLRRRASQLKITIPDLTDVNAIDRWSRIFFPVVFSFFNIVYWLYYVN
# UniProt Q1MX30, sequence (whole entry, looked up): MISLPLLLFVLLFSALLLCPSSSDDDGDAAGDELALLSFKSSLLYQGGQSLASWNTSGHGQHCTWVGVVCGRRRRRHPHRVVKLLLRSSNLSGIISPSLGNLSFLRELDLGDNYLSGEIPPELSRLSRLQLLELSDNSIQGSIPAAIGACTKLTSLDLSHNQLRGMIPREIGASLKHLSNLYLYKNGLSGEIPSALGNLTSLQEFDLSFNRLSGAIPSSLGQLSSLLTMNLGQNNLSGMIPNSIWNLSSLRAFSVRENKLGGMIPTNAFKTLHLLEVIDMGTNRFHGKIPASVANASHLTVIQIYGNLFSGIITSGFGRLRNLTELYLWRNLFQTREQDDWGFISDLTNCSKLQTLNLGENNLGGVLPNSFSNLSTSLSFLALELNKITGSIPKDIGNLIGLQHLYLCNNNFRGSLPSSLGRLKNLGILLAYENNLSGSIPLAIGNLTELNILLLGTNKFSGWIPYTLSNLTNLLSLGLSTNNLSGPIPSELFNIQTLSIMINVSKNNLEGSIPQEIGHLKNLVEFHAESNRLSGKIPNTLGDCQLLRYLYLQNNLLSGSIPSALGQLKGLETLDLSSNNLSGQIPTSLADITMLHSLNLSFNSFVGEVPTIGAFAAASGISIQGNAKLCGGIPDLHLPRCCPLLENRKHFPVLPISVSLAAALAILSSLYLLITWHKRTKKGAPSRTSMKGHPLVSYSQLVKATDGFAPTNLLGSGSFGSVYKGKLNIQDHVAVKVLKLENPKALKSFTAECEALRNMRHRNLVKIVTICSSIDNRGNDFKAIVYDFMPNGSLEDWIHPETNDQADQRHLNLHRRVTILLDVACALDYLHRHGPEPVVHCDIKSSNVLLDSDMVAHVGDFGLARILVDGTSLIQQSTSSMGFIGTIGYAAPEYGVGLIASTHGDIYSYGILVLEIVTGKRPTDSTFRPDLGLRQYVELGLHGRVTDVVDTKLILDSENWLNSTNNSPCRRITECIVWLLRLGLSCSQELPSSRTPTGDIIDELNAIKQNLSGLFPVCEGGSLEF
# UniProt P43116, sequence (whole entry, looked up): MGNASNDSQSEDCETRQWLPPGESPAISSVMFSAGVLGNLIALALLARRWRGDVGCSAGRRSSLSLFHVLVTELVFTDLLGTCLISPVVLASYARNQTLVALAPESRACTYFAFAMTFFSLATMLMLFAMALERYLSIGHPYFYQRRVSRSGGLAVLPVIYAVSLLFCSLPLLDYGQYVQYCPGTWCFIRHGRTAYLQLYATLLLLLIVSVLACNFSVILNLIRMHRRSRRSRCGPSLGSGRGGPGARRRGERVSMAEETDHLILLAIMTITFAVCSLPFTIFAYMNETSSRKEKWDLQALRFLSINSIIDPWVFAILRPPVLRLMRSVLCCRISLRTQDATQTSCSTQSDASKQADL
SMILES,target,assay,test system,conditions,how to read,EC50 [nM]
O=C(O)C1CC1,FFAR2,agonist,,,,398000
CC(C)C[C@H](NC(=O)CNC(=O)[C@H](CCC(N)=O)NC(=O)[C@H](CC(C)C)NC(=O)[C@H](CC(C)C)NC(=O)[C@H](CCCNC(=N)N)NC(=O)[C@H](CCC(N)=O)NC(=O)[C@H](CC(C)C)NC(=O)[C@H](CCCNC(=N)N)NC(=O)[C@H](C)NC(=O)[C@H](CO)NC(=O)[C@H](CC(=O)O)NC(=O)[C@H](CCC(N)=O)NC(=O)[C@H](CC(C)C)NC(=O)[C@H](CCCNC(=N)N)NC(=O)[C@H](CO)NC(=O)[C@H](CC(C)C)NC(=O)[C@H](CCC(=O)O)NC(=O)[C@H](C)NC(=O)[C@@H](NC(=O)[C@H](Cc1ccccc1)NC(=O)[C@@H](NC(=O)CNC(=O)[C@H](CC(=O)O)NC(=O)[C@H](CO)NC(=O)[C@@H](N)Cc1c[nH]cn1)[C@@H](C)O)[C@@H](C)O)C(=O)N[C@H](C(N)=O)C(C)C,Sctr,"cAMP production, agonist",CHO-SecR,"30 min, 37 °C, together with: 1 mM IBMX",,6.1 ± 1.4
CC(C)CN(CC(C)C)C(=O)/C=C/C=C/c1ccc2c(c1)OCO2,"Gabra2/Gabrb2, with γ2S subunit (Rattus norvegicus, UniProt P23576+P63138)","GABA current potentiation, positive modulator, two-electrode voltage clamp",Xenopus oocytes expressing α2β2γ2S,together with: GABA EC3-7,,24100 ± 7500
C/C=C(\C)C(=O)O,FFAR2,agonist,,,,162000
CC(C)C[C@H](NC(=O)CNC(=O)[C@H](C)NC(=O)[C@H](CC(C)C)NC(=O)[C@H](CCCNC(=N)N)NC(=O)[C@H](Cc1cnc[nH]1)NC(=O)[C@@H](NC(=O)[C@@H](NC(=O)[C@@H]1CSSC[C@H](NC(=O)[C@H](C)N)C(=O)N[C@@H](CC(=O)O)C(=O)N[C@@H]([C@@H](C)O)C(=O)N[C@@H](C)C(=O)N[C@@H]([C@@H](C)O)C(=O)N1)C(C)C)[C@@H](C)O)C(=O)N[C@@H](CC(C)C)C(=O)N[C@@H](CO)C(=O)N[C@@H](CCCNC(=N)N)C(=O)N[C@@H](CO)C(=O)NCC(=O)NCC(=O)N[C@H](C(=O)N[C@H](C(=O)N[C@@H](CCCCN)C(=O)N[C@@H](CC(N)=O)C(=O)N[C@@H](CC(N)=O)C(=O)N[C@@H](Cc1ccccc1)C(=O)N[C@H](C(=O)N1CCC[C@H]1C(=O)N[C@H](C(=O)N[C@@H](CC(N)=O)C(=O)N[C@H](C(=O)NCC(=O)N[C@@H](CO)C(=O)N[C@@H](CCCCN)C(=O)N[C@@H](C)C(=O)N[C@@H](Cc1ccccc1)C(N)=O)C(C)C)[C@@H](C)O)C(C)C)C(C)C)C(C)C,"Calcr/Ramp2 (Mus musculus, UniProt Q60755+Q9WUP0, P10T)","cAMP production, agonist","COS-7, transfected","15 min, 37 °C, together with: IBMX 1 mM",,31.6
O=C(O)/C=C/c1cccc(NC(=O)c2cc(-c3ccccc3)ccc2F)c1,"Prostaglandin E2 receptor EP2 subtype (PTGER2, Homo sapiens, UniProt P43116)","calcium signal, agonist, fluorescence",,,,79.4
CSCC[C@H](NC(=O)[C@H](CO)NC(=O)[C@H](Cc1ccc(O)cc1)NC(=O)[C@@H](N)CO)C(=O)N[C@@H](CCC(=O)O)C(=O)N[C@@H](Cc1c[nH]cn1)C(=O)N[C@@H](Cc1ccccc1)C(=O)N[C@@H](CCCNC(=N)N)C(=O)N[C@@H](Cc1c[nH]c2ccccc12)C(=O)NCC(=O)O,"Probable G-protein coupled receptor 139 (GPR139, Homo sapiens, UniProt Q6DWJ6)","calcium mobilisation, agonist, Fluo-4",CHO transfected,mean of triplicates,,318
CC(C)C[C@H](NC(=O)CNC(=O)[C@H](CCC(N)=O)NC(=O)[C@H](CC(C)C)NC(=O)[C@H](CC(C)C)NC(=O)[C@H](CCCNC(=N)N)NC(=O)[C@H](CCC(N)=O)NC(=O)[C@H](CC(C)C)NC(=O)[C@H](CCCNC(=N)N)NC(=O)[C@H](C)NC(=O)[C@H](CO)NC(=O)[C@H](CC(=O)O)NC(=O)[C@H](CCC(N)=O)NC(=O)[C@H](CC(C)C)NC(=O)[C@H](CCCNC(=N)N)NC(=O)[C@H](CO)NC(=O)[C@H](CC(C)C)NC(=O)[C@H](CCC(=O)O)NC(=O)[C@H](CO)NC(=O)[C@@H](NC(=O)[C@H](Cc1ccccc1)NC(=O)[C@H](C)NC(=O)CNC(=O)[C@H](CC(=O)O)NC(=O)[C@H](CO)NC(=O)[C@@H](N)Cc1c[nH]cn1)[C@@H](C)O)C(=O)N[C@H](C(N)=O)C(C)C,Sctr,"cAMP production, agonist",CHO-SecR,"30 min, 37 °C, together with: 1 mM IBMX",,0.2 ± 0.05
CC[C@H](C)[C@H](NC(=O)[C@H](Cc1ccccc1)NC(=O)[C@H](CC(=O)O)NC(=O)[C@H](CCCNC(=N)N)NC(=O)[C@H](C)NC(=O)[C@H](C)NC(=O)[C@H](CC(C)C)NC(=O)[C@H](CC(N)=O)NC(=O)[C@H](CC(=O)O)NC(=O)[C@H](CC(C)C)NC(=O)[C@@H](NC(=O)[C@@H](NC(=O)[C@H](CC(N)=O)NC(=O)[C@H](CCSC)NC(=O)[C@H](CCC(=O)O)NC(=O)[C@H](CC(=O)O)NC(=O)[C@H](CO)NC(=O)[C@H](Cc1ccccc1)NC(=O)[C@H](CO)NC(=O)CCNC(=O)[C@H](CC(=O)O)NC(=O)[C@H](C)NC(=O)[C@@H](N)Cc1c[nH]cn1)[C@@H](C)O)[C@@H](C)CC)C(=O)N[C@@H](CC(N)=O)C(=O)N[C@@H](Cc1c[nH]c2ccccc12)C(=O)N[C@@H](CC(C)C)C(=O)N[C@H](C(=O)N[C@@H](CCC(N)=O)C(=O)N[C@H](C(=O)N[C@@H](CCCCN)C(=O)N[C@H](C(=O)N[C@H](C(=O)N[C@@H](CC(=O)O)C(N)=O)[C@@H](C)O)[C@@H](C)CC)[C@@H](C)O)[C@@H](C)CC,"Glucagon-like peptide 2 receptor (GLP2R, Homo sapiens, UniProt O95838)",agonist,,,,0.5
CC(C)C[C@H](NC(=O)CNC(=O)[C@H](CCC(N)=O)NC(=O)[C@H](C)NC(=O)[C@H](CC(C)C)NC(=O)[C@H](CCCNC(=N)N)NC(=O)[C@H](CCC(N)=O)NC(=O)[C@H](CC(C)C)NC(=O)[C@H](CCCNC(=N)N)NC(=O)[C@H](C)NC(=O)[C@H](CO)NC(=O)[C@H](CC(=O)O)NC(=O)[C@H](CCC(N)=O)NC(=O)[C@H](CC(C)C)NC(=O)[C@H](CCCNC(=N)N)NC(=O)[C@H](CO)NC(=O)[C@H](CC(C)C)NC(=O)[C@H](CCC(=O)O)NC(=O)[C@H](CO)NC(=O)[C@@H](NC(=O)[C@H](Cc1ccccc1)NC(=O)[C@@H](NC(=O)CNC(=O)[C@H](CC(=O)O)NC(=O)[C@H](CO)NC(=O)[C@@H](N)Cc1c[nH]cn1)[C@@H](C)O)[C@@H](C)O)C(=O)N[C@H](C(N)=O)C(C)C,Sctr,"cAMP production, agonist",CHO-SecR,"30 min, 37 °C, together with: 1 mM IBMX",,33.2 ± 6.2
CCCCN(CCc1ccccc1)CCc1cccc(O)c1,"Kappa-type opioid receptor (OPRK1, Homo sapiens, UniProt P41145)",agonist,,,,14
CSCC[C@H](NC(=O)[C@H](CC(C)C)NC(=O)[C@H](Cc1cnc[nH]1)NC(=O)CNC(=O)[C@@H](NC(=O)[C@H](C)NC(=O)[C@H](Cc1c[nH]c2ccccc12)NC(=O)[C@H](Cc1cnc[nH]1)NC(=O)[C@H](CC(N)=O)NC(=O)CN)C(C)C)C(N)=O,GRPR,"inositol phosphate, agonist",,,,1.51
CC[C@H](C)[C@H](NC(=O)CNC(=O)C1CCN(C(=O)[C@H](CO)NC(=O)[C@@H](N)Cc2c[nH]cn2)CC1)C(=O)N[C@@H](Cc1ccccc1)C(=O)N[C@H](C(=O)N[C@@H](CC(=O)O)C(=O)N[C@@H](CO)C(=O)N[C@@H](Cc1ccc(O)cc1)C(=O)N[C@@H](CO)C(=O)N[C@@H](CCCNC(=N)N)C(=O)N[C@@H](Cc1ccc(O)cc1)C(=O)N[C@@H](CCCNC(=N)N)C(=O)N[C@@H](CCCCN)C(=O)NC(C)(C)C(=O)N[C@@H](C)C(=O)N[C@@H](C)C(=O)N[C@H](C(=O)N[C@@H](CCCCN)C(=O)N[C@@H](CCCCN)C(=O)N[C@@H](Cc1ccc(O)cc1)C(=O)N[C@@H](CC(C)C)C(=O)N[C@@H](C)C(=O)N[C@@H](C)C(=O)N[C@H](C(=O)N[C@@H](CC(C)C)C(=O)NC(C)(C)C(=O)N[C@@H](CCCCN)C(=O)N[C@@H](CCCNC(=N)N)C(=O)N[C@@H](Cc1ccc(O)cc1)C(=O)N[C@@H](CCCCN)C(=O)N[C@@H](CCC(N)=O)C(=O)N[C@@H](CCCCN)C(=O)N[C@H](C(=O)N[C@@H](CCCCN)C(=O)N[C@@H](CC(N)=O)C(=O)N[C@H](CCCCN)C(N)=O)C(C)C)C(C)C)C(C)C)[C@@H](C)O,"Vasoactive intestinal polypeptide receptor 1 (VIPR1, Homo sapiens, UniProt P32241)","cAMP production, agonist",PANC-1 transfected with receptor,,,> 1000
CC(C)C[C@H](NC(=O)[C@H](CCCNC(=N)N)NC(=O)[C@H](CCC(N)=O)NC(=O)[C@H](CC(=O)O)NC(=O)[C@H](CC(C)C)NC(=O)[C@@H]1CCCN1C(=O)[C@H](CCC(=O)O)NC(=O)[C@@H]1CCCN1C(=O)[C@H](CCCNC(=N)N)NC(=O)CNC(=O)[C@@H](N)CCCCN)C(=O)N[C@@H](Cc1c[nH]c2ccccc12)C(=O)N[C@@H](CCCCN)C(=O)N[C@@H](Cc1c[nH]cn1)C(=O)N[C@H](C(=O)NCC(=O)NCC(=O)NCC(=O)N[C@@H](CC(=O)O)C(=O)N[C@@H](Cc1ccc(OS(=O)(=O)O)cc1)C(=O)N1CCC[C@H]1C(=O)N1CCC[C@H]1C(=O)N1CCC[C@H]1C(=O)NCC(=O)N[C@@H](C)C(=O)N[C@@H](CC(N)=O)C(=O)N1CCC[C@H]1C(=O)N[C@@H](CCCCN)C(=O)N[C@@H](Cc1c[nH]cn1)C(=O)N[C@@H](CC(=O)O)C(=O)N1CCC[C@H]1C(=O)N1CCC[C@H]1C(=O)N1CCC[C@H]1C(=O)N[C@@H](CCCNC(=N)N)C(=O)N[C@@H](CC(N)=O)C(=O)N1CCC[C@H]1C(=O)NCC(=O)N[C@@H](Cc1c[nH]cn1)C(=O)N[C@@H](Cc1c[nH]cn1)C(=O)O)C(C)C,"Receptor kinase-like protein Xa21 (XA21, Oryza sativa subsp. indica, UniProt Q1MX30)","ROS production, agonist, L-012 chemiluminescence","Oryza sativa, Kitaake Ubi::XA21, leaves",3 h,,~70
CC(C)C[C@H](NC(=O)[C@H](CC(C)C)NC(=O)[C@H](Cc1c[nH]cn1)NC(=O)[C@@H](C)NC(=O)[C@@H](NC(=O)[C@H](C)NC(=O)[C@H](Cc1c[nH]c2ccccc12)NC(=O)[C@H](CCC(N)=O)NC(=O)[C@H](N)Cc1ccccc1)C(C)C)C(N)=O,GRPR,"inositol phosphate generation, agonist",BALB/3T3 transfected with human GRPR,"45 min, 37 °C",relative to: 1 µM GRP,3.02 ± 0.1

# Excerpt of the above:
SMILES,target,assay,test system,conditions,how to read,EC50 [nM]
CSCC[C@H](NC(=O)[C@H](CO)NC(=O)[C@H](Cc1ccc(O)cc1)NC(=O)[C@@H](N)CO)C(=O)N[C@@H](CCC(=O)O)C(=O)N[C@@H](Cc1c[nH]cn1)C(=O)N[C@@H](Cc1ccccc1)C(=O)N[C@@H](CCCNC(=N)N)C(=O)N[C@@H](Cc1c[nH]c2ccccc12)C(=O)NCC(=O)O,"Probable G-protein coupled receptor 139 (GPR139, Homo sapiens, UniProt Q6DWJ6)","calcium mobilisation, agonist, Fluo-4",CHO transfected,mean of triplicates,,318
CC(C)C[C@H](NC(=O)[C@H](CCCNC(=N)N)NC(=O)[C@H](CCC(N)=O)NC(=O)[C@H](CC(=O)O)NC(=O)[C@H](CC(C)C)NC(=O)[C@@H]1CCCN1C(=O)[C@H](CCC(=O)O)NC(=O)[C@@H]1CCCN1C(=O)[C@H](CCCNC(=N)N)NC(=O)CNC(=O)[C@@H](N)CCCCN)C(=O)N[C@@H](Cc1c[nH]c2ccccc12)C(=O)N[C@@H](CCCCN)C(=O)N[C@@H](Cc1c[nH]cn1)C(=O)N[C@H](C(=O)NCC(=O)NCC(=O)NCC(=O)N[C@@H](CC(=O)O)C(=O)N[C@@H](Cc1ccc(OS(=O)(=O)O)cc1)C(=O)N1CCC[C@H]1C(=O)N1CCC[C@H]1C(=O)N1CCC[C@H]1C(=O)NCC(=O)N[C@@H](C)C(=O)N[C@@H](CC(N)=O)C(=O)N1CCC[C@H]1C(=O)N[C@@H](CCCCN)C(=O)N[C@@H](Cc1c[nH]cn1)C(=O)N[C@@H](CC(=O)O)C(=O)N1CCC[C@H]1C(=O)N1CCC[C@H]1C(=O)N1CCC[C@H]1C(=O)N[C@@H](CCCNC(=N)N)C(=O)N[C@@H](CC(N)=O)C(=O)N1CCC[C@H]1C(=O)NCC(=O)N[C@@H](Cc1c[nH]cn1)C(=O)N[C@@H](Cc1c[nH]cn1)C(=O)O)C(C)C,"Receptor kinase-like protein Xa21 (XA21, Oryza sativa subsp. indica, UniProt Q1MX30)","ROS production, agonist, L-012 chemiluminescence","Oryza sativa, Kitaake Ubi::XA21, leaves",3 h,,~70
